Assay results of several laboratories.
Compare with care: the assays were run in different laboratories. Values joined by “and” are separate records of one study, mostly repeats; a detail may differ. Numbers after ± are the reported error.
TNKS2: Poly [ADP-ribose] polymerase tankyrase-2 (TNKS2, Homo sapiens, UniProt Q9H2K2)
F13A1: Coagulation factor XIII A chain (F13A1, Homo sapiens, UniProt P00488)
DRD3: D(3) dopamine receptor (DRD3, Homo sapiens, UniProt P35462)

Compound	target	test	test system	setting	quantity	result
O=c1[nH]c2c(nnn2Cc2ccccc2C(F)(F)F)c2ccc(F)cc12	TNKS2	ADP-ribosyltransferase activity, inhibitor, NAD+ consumption fluorescence			IC50	0.389 µM
N#C/C(=C\c1ccc(O)c(O)c1)C(N)=S	F13A1	enzyme activity, inhibitor, biotin-pentylamine incorporation		with DTT	IC50	> 20 µM
CN1CCN(C(=O)c2ccccc2N(Cc2ccccc2)S(C)(=O)=O)CC1	CDK2 (Homo sapiens, UniProt P24941)	binding			Kd	> 100 µM
Cc1[nH]c(C)c(S(=O)(=O)Nc2ccc(C(F)(F)F)c(Cl)c2)c1C(=O)N1CC2(CCC2)C1	DRD3	β-arrestin recruitment, antagonist, PathHunter		with: dopamine EC80	IC50	> 100 µM
COc1ccc2c(=O)[nH]c3c(nnn3Cc3ccc(C)cc3)c2c1	TNKS2				IC50	0.0933 µM
Cc1[nH]c(C)c(S(=O)(=O)Nc2ccc(C(C)(C)O)c(Cl)c2)c1C(=O)N1CCC(F)(F)C1	DRD3	Go activation, antagonist, BRET		with: dopamine	IC50	> 100 µM
CC(C)C(=O)OCC(=O)[C@@]12O[C@H](C3CCCCC3)O[C@@H]1C[C@H]1[C@@H]3CCC4=CC(=O)C=C[C@]4(C)[C@H]3[C@@H](O)C[C@@]12C	RORC (Homo sapiens, UniProt P51449)	reporter gene, inhibitor, GAL4 dual-luciferase reporter	HEK293T	24 h	IC50	2.08 ± 0.4 µM
CC[C@@H]1[C@H](F)C(=O)N[C@@H]1COc1nccc2cc(C(N)=O)c(OC)cc12	WEE1 (Homo sapiens, UniProt P30291)	ATP-site probe binding, ActivX profiling	THP-1 cell lysate	Lys2 site	IC50	> 5 µM
Cc1ccc(NS(=O)(=O)c2c(C(=O)N3CCC(F)(F)C3)cnn2C)cc1Cl	DRD3	β-arrestin recruitment, antagonist, PathHunter		with: dopamine EC80	IC50	> 100 µM
COc1ccc(F)cc1C(=O)NCc1ccc(-c2nn([C@@H](C)C(F)(F)F)c(N)c2C(N)=O)cc1	ERBB4 (Homo sapiens, UniProt Q15303)	C-terminal tail phosphorylation, PathHunter functional kinase	U2OS	value is top dose tested	IC50	> 10 µM
Cc1[nH]c(C)c(S(=O)(=O)Nc2ccc(B3OC(C)(C)C(C)(C)O3)cc2)c1C(=O)N1CCC(F)(F)C1	DRD3	Go activation, antagonist, BRET		with: dopamine	IC50	> 100 µM
O=C(N/N=C/c1ccc(C(F)(F)F)nc1)c1cc2c(s1)CCCC2	dxs (Deinococcus radiodurans, UniProt Q9RUB5)				IC50	53.4 µM and 48.8 µM
CC(C)Oc1c(NC(=O)c2ccc(NC(=O)[C@H](CC(N)=O)NC(=O)c3ccc(/N=N/c4ccc(N(C)C)cc4)cc3)cc2)ccc(C(=O)Nc2ccc(C(=O)O)cc2)c1O	DNA gyrase (gyrA/gyrB, Escherichia coli, UniProt P0AES4+P0AES6)	DNA supercoiling, inhibitor		30 min, 37 °C, dark thermally adapted state, with: relaxed pUC19 DNA	IC50	0.5 µM
O=c1c(O)c(-c2ccc(O)c(O)c2)oc2cc(O)cc(O)c12	CHRM3 (Homo sapiens, UniProt P20309)	DMR desensitization	HT-29	with: acetylcholine	IC50	116 µM
Cc1cccc(Cn2nnc3c4ccc(F)cc4c(=O)[nH]c32)c1	TNKS2	ADP-ribosyltransferase activity, inhibitor, NAD+ consumption fluorescence			IC50	0.107 µM
CNC(=O)CCOCCC(=O)N1CC2CCC(C1)C2NCc1cc(-c2cc(O)ccc2OC(F)(F)F)ccc1F (stereo not shown)	Estrogen receptor (ESR1, Homo sapiens, UniProt P03372, Y537S)				IC50	~1 µM

Compound	target	test	test system	setting	quantity	result
CC[C@H](C)[C@H](NC(=O)[C@@H](N)CC(C)C)C(=O)N[C@@H](CCCCN)C(=O)N[C@@H](C)C(=O)N[C@@H](CCCCN)C(=O)N[C@@H](CCCNC(=N)N)C(=O)N[C@@H](CCCCN)C(=O)N[C@@H](CCCNC(=N)N)C(=O)N[C@@H](CCCCN)C(=O)N[C@@H](CCCCN)C(=O)O	Coagulation factor V, activated factor Va (F5, Homo sapiens, UniProt P12259)	prothrombinase activity, inhibitor			IC50	110 µM
O=C(O)CC(O)(CC(=O)O)C(=O)O	HIF1AN (Homo sapiens, UniProt Q9NWT6, Q147A)	enzyme activity, inhibitor		pH 7	IC50	140 ± 1 µM
CC1=CC(=O)c2ccccc2C1=O	F13A1	crosslinking activity		with: DTT	IC50	> 50 µM
Cc1[nH]c(C)c(S(=O)(=O)Nc2ccc(C3(C)CCO3)c(Cl)c2)c1C(=O)N1CCC(F)(F)C1 (stereo not shown)	DRD3	Go activation, antagonist, BRET		with: dopamine	IC50	> 100 µM
C=C(C)C1CC=C(C)CC1 (stereo not shown)	tyrosinase			with: L-tyrosine	IC50	13.3 ± 0.2 mg/mL
CN1CCN(c2ccc(Nc3ncc4cc(C#N)c(=O)n(C5CCCC5)c4n3)cc2)CC1	PRKD1 (Homo sapiens, UniProt Q15139)				IC50	0.0747 µM
N#CSc1cc(SC#N)c(N)nc1N	OTUB1 (Homo sapiens, UniProt Q96FW1)	deubiquitinase activity, inhibitor, MALDI-TOF DUB		30 °C, 35 min pre-incubation	IC50	2.16 µM
Cc1[nH]c(C)c(S(=O)(=O)Nc2ccc(C(F)(F)F)c3cccnc23)c1C(=O)N1CCC(F)(F)C1	DRD3	Go activation, antagonist, BRET		with: dopamine	IC50	> 100 µM
Cc1ccc(Cn2nnc3c4ccc(C(F)(F)F)cc4c(=O)[nH]c32)cc1	TNKS2	ADP-ribosyltransferase activity, inhibitor, NAD+ consumption fluorescence			IC50	> 10 µM
Cc1nc2sccn2c(=O)c1CCN1CCC(=C(c2ccc(F)cc2)c2ccc(F)cc2)CC1	Diacylglycerol kinase alpha (Rattus norvegicus, UniProt P51556)	kinase activity, inhibitor	HEK293T cell lysate	with: diacylglycerol liposomes	IC50	27.4 µM
Cc1ccc(NS(=O)(=O)c2[nH]nc(C)c2C(=O)N2CCC(F)(F)C2)cc1Cl	DRD3	β-arrestin recruitment, antagonist, PathHunter		with: dopamine EC80	IC50	> 100 µM
COc1ccc2c(c1)CN(C(=O)CCN1CCC(Cc3ccccc3)CC1)CC[S@@+]2[O-]	KCND3 (Homo sapiens, UniProt Q9UK17)	Ito current, inhibitor, whole-cell patch clamp	stable cell line		IC50	16.5 µM
Cc1cc(C)c(S(=O)(=O)NCc2ccccn2)cc1C	Cyclin-dependent kinase 2, with cyclin A (CDK2, Homo sapiens, UniProt P24941)				Kd	> 100 µM
CC(C)(C)c1ccc(Cn2nnc3c4ccc(F)cc4c(=O)[nH]c32)cc1	TNKS2	ADP-ribosyltransferase activity, inhibitor, NAD+ consumption fluorescence			IC50	0.0933 µM
CNC(=O)c1c(C)[nH]c(C)c1S(=O)(=O)Nc1ccc(C(F)(F)F)c(Cl)c1	DRD3	Go activation, antagonist, BRET		with: dopamine	IC50	> 100 µM
